Experimental data collected from several papers.
Numbered parts are unrelated; each lists some results of a single study.
Sequence of UniProt Q15139 (whole entry, looked up): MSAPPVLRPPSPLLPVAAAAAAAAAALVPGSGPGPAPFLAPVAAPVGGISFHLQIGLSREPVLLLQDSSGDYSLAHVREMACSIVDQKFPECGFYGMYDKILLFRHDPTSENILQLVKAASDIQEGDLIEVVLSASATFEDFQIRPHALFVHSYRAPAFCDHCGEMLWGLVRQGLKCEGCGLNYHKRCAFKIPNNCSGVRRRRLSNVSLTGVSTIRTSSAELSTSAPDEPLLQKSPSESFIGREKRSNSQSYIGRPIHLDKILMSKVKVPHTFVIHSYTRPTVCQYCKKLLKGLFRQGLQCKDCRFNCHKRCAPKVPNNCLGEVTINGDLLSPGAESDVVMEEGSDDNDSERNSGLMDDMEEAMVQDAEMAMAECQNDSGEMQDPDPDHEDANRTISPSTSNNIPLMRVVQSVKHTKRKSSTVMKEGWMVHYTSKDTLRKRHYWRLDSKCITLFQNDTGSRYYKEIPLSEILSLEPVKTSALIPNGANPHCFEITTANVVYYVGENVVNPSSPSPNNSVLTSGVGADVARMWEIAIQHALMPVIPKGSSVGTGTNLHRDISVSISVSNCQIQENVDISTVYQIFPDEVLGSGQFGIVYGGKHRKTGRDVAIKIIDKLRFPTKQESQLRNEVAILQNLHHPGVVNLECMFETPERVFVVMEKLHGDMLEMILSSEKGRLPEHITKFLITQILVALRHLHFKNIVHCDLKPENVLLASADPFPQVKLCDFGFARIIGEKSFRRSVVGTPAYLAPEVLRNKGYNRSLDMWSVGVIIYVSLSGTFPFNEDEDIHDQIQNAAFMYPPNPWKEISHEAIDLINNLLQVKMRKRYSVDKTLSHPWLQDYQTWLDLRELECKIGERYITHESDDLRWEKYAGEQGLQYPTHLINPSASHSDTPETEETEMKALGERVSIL
Sequence of UniProt P07949 (whole entry, looked up): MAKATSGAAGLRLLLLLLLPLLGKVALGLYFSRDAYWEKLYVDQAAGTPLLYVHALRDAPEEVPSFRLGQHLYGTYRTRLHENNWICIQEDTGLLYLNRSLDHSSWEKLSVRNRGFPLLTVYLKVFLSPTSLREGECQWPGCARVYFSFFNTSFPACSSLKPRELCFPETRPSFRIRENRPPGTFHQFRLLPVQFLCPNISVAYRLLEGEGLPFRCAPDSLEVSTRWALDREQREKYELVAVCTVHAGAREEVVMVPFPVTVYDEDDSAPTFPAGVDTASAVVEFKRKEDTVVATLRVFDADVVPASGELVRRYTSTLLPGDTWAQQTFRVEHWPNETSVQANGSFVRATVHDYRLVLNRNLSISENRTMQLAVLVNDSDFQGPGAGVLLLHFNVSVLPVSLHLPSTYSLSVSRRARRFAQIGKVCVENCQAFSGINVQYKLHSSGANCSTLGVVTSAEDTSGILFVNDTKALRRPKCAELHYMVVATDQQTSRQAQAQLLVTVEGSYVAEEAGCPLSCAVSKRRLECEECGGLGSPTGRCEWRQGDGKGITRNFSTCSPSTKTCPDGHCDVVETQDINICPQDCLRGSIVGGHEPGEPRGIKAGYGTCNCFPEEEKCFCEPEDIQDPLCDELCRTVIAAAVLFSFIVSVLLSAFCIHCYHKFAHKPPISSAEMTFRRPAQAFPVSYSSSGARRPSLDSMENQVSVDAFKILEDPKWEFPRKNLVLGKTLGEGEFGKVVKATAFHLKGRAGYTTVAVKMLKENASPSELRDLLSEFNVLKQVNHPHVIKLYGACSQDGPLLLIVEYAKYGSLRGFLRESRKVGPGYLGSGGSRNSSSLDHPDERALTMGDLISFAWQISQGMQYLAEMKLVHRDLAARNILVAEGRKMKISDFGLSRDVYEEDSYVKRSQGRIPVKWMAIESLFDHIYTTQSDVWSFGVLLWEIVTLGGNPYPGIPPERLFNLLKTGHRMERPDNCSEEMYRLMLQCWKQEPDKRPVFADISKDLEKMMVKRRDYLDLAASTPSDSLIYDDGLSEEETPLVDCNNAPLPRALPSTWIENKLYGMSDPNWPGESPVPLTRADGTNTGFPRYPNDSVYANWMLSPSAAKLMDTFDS
Sequence of UniProt P41279 (whole entry, looked up): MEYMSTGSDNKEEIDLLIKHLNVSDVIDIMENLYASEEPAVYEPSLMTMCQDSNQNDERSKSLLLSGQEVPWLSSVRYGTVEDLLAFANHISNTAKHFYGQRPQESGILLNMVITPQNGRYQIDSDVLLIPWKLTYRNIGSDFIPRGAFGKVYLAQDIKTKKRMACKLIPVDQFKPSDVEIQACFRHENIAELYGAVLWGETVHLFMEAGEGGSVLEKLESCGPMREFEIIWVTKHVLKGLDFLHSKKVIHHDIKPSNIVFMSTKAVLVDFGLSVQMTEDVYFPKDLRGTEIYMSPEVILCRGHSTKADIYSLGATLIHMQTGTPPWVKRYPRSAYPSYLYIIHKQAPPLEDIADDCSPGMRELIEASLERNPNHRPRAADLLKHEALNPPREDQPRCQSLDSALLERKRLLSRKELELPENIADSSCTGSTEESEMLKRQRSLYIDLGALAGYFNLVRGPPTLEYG
Sequence of UniProt P34947 (whole entry, looked up): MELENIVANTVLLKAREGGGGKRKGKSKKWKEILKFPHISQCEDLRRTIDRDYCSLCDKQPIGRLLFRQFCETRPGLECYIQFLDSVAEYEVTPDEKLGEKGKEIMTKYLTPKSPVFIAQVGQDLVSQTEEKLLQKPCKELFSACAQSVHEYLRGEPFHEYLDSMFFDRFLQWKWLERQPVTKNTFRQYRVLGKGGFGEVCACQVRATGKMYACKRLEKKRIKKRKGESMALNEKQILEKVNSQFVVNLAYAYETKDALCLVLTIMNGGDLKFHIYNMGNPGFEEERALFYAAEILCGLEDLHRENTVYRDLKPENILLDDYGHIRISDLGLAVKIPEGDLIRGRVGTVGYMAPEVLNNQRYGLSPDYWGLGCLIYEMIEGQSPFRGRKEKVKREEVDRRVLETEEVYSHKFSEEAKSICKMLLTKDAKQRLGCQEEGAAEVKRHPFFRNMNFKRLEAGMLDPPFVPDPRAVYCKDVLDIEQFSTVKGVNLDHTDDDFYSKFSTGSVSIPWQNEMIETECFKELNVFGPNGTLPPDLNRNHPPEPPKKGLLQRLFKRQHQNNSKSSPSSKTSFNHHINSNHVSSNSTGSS
Sequence of UniProt Q96NX5 (whole entry, looked up): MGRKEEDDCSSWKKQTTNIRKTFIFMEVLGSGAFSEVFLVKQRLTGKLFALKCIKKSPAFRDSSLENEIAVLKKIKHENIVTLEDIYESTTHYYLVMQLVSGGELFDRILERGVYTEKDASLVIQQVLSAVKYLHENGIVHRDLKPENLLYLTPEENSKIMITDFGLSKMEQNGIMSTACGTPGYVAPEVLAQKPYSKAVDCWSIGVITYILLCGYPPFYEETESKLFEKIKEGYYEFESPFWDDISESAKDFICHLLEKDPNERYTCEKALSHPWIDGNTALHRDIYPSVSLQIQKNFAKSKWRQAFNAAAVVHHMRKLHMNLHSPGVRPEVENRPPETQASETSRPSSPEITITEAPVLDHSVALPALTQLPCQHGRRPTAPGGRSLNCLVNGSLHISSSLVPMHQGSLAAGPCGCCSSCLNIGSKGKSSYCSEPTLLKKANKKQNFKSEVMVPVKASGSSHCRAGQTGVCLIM
Sequence of UniProt Q9H2G2 (whole entry, looked up): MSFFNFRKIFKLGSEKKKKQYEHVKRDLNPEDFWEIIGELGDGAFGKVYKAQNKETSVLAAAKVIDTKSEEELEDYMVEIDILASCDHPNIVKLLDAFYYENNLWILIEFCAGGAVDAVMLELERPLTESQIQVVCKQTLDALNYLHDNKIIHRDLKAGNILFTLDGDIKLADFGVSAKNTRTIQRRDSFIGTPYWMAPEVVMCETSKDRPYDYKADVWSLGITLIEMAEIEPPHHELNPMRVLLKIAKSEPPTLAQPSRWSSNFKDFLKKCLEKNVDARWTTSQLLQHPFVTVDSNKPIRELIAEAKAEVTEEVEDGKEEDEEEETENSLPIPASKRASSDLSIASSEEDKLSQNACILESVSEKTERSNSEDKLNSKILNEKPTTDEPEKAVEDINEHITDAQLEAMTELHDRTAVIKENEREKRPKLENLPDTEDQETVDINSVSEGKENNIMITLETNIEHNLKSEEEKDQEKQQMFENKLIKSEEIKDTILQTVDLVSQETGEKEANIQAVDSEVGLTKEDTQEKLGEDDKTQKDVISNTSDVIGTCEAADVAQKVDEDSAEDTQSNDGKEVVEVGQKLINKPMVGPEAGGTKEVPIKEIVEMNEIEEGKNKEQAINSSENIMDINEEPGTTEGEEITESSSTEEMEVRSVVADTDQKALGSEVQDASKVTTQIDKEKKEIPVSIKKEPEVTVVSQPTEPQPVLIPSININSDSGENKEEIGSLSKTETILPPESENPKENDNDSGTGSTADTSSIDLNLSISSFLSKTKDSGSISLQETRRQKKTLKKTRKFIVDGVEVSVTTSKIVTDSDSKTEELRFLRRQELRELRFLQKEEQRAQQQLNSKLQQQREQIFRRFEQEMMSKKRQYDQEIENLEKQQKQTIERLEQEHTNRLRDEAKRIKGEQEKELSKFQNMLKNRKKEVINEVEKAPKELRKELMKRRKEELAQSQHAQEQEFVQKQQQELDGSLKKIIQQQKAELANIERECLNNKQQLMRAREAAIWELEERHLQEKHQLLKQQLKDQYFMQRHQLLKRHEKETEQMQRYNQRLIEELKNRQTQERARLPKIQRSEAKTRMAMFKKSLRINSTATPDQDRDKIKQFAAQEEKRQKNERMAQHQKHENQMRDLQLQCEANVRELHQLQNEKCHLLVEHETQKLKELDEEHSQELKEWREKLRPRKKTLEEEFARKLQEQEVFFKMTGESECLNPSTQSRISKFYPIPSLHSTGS

Study 1
Structure (SMILES): CCn1cnc2c(Nc3cccc(Cl)c3)nc(N[C@H]3CCCC[C@H]3N)nc21
Observed: enzyme activity
Action: inhibitor
Concentration: 0.5 µM
Relative to: control
target	remaining activity [%]
Cyclin-dependent kinase 2, with cyclin A (CDK2, Homo sapiens, UniProt P24941)	23.6
Protein-tyrosine kinase 2-beta (PTK2B, Homo sapiens, UniProt Q14289)	85.7
Homeodomain-interacting protein kinase 3 (HIPK3, Homo sapiens, UniProt Q9H422)	102
Serine/threonine-protein kinase D1 (PRKD1, Homo sapiens, UniProt Q15139)	90.8
STE20-like serine/threonine-protein kinase (SLK, Homo sapiens, UniProt Q9H2G2)	71.4
Proto-oncogene tyrosine-protein kinase ROS (ROS1, Homo sapiens, UniProt P08922)	90.7
G protein-coupled receptor kinase 5 (GRK5, Homo sapiens, UniProt P34947)	106
Calcium/calmodulin-dependent protein kinase type 1D (CAMK1D, Homo sapiens, UniProt Q8IU85)	96.7
Calcium/calmodulin-dependent protein kinase type 1G (CAMK1G, Homo sapiens, UniProt Q96NX5)	94.1
Mitogen-activated protein kinase kinase kinase 8 (MAP3K8, Homo sapiens, UniProt P41279)	93.6
Proto-oncogene tyrosine-protein kinase receptor Ret (RET, Homo sapiens, UniProt P07949)	69.3

Study 2
Cell line: HaCaT
Concentration: 100 µM
Time: 36 h
SMILES	viability [%]
C[C@]12CC[C@H]3[C@@H](CCC4=CC(=O)CC[C@@]43C)[C@@H]1CC[C@@H]2O	96.4
CC(C)c1c(CN(C)C(C)Cc2ccccc2)n(C)n(-c2ccccc2)c1=O (centres unmarked)	80.6
C[C@]1(O)CC[C@H]2[C@@H]3CCC4=CC(=O)CC[C@]4(C)[C@@]3(F)[C@@H](O)C[C@@]21C	97.5
C[C@]12C=CC(=O)C=C1CC[C@@H]1[C@@H]2CC[C@@]2(C)[C@H]1CC[C@]2(C)O	94
CCC1=C[C@@H]2CN3CCc4c([nH]c5ccccc45)[C@@](C(=O)OC)(C2)[C@@H]13	113

Study 3
Cell line: HEK-293T-ACE2-TMPRSS2
Technique: cell count
Concentration: concentration not given
Structure (SMILES)	viability [%]
Cc1oc2ncnc(N3CCCC(C(=O)NCCCc4ccccc4)C3)c2c1C (centres unmarked)	74
Cc1ccc(C(=O)N2CCN(S(=O)(=O)c3ccc4c(c3)NC(=O)C(C)O4)CC2)s1 (centres unmarked)	76
Cc1onc(-c2c(Cl)cccc2Cl)c1C(=O)On1c(-c2ccccc2)nc2ccccc2c1=O	71
Cc1ccc(S(=O)(=O)CCC(=O)Nc2nc(-c3nc4ccccc4s3)cs2)cc1	77
O=[N+]([O-])c1ccc(S(=O)(=O)c2ccccc2)nc1S(=O)(=O)c1ccccc1	67
Cc1oc2ncnc(N3CCC(C(=O)NCc4cccs4)CC3)c2c1C	74
CCOC(=O)C1(Cc2ccccc2C(F)(F)F)CCN(C(=O)Cc2nonc2C)CC1	107
O=C(c1cn2cc(Cl)ccc2n1)N1CCC2(CC1)C(=O)Nc1ccccc12	104
c1nc(Sc2nnc(NCC3CCCO3)s2)c2ccsc2n1 (centres unmarked)	67
Cc1ccc2[nH]cc(CN(C)CC3CCCCO3)c2c1 (centres unmarked)	66
CCn1ccc2cc(-c3c(-c4ccccc4)ncn3CCC(N)=O)ccc21	71
CN(CC(=O)N1CCN2C(=O)CN(C)C(=O)C2C1)Cc1ccc(F)cc1 (centres unmarked)	67
Cc1cc2c(cc1S(=O)(=O)N1CCCC(C(=O)N3CC(=O)Nc4ccccc43)C1)OCC(=O)N2 (centres unmarked)	80
NC(=O)c1snc(C(=O)N(Cc2ccccc2)C2CCN(Cc3ccccc3)CC2)c1N	74
CCOC(=O)c1c(-c2ccc(N(C)C)cc2)n(C)c2cc(-c3cccnc3)c(O)cc12	76
Cc1cc(C(=O)N2C[C@@H](CO)[C@H](N(C)C)C2)on1	116
Cc1noc(-c2ccc(S(=O)(=O)NCc3cccs3)o2)c1C	70
COc1ccc(C(=O)N2c3cc(CNC(=O)c4ccnn4C)ccc3CC2C)cc1 (centres unmarked)	68
O=C(Oc1cccc2c1C(=O)C=CC2=O)c1ccccc1	69
CN1CCC2(CC1)CN(C(=O)c1cnc(-c3ccccc3)nc1)CCN2C	72
Cc1ccc(N2CCN(C(=O)CC3(CC4=Nc5ccccc5S(=O)(=O)N4)CCCC3)CC2)c(C)c1	66
NC(=O)C1(N2CCCCC2)CCN(c2ncnc3sc4c(c23)CCNC4)CC1	95

Study 4
Cell line: HEK-293T-ACE2
Concentration: concentration not given
Relative to: vehicle
SMILES	cell number
O=[As]O[As]=O (centres unmarked)	103%
CN[C@H]1C(=O)N[C@@H]2Cc3ccc(cc3)Oc3cc4cc(c3O[C@@H]3O[C@H](C(=O)O)[C@@H](O)[C@H](O)[C@H]3NC(=O)CCCCCCCCC(C)C)Oc3ccc(cc3Cl)[C@@H](O)[C@@H]3NC(=O)[C@H](NC(=O)[C@@H]4NC(=O)[C@@H](NC2=O)c2cc(cc(O)c2Cl)Oc2cc1ccc2O)c1ccc(O)c(c1)-c1c(O[C@H]2O[C@H](CO)[C@@H](O)[C@H](O)[C@@H]2O)cc(O)cc1[C@@H](C(=O)O)NC3=O	81%
CC(C)NCC(O)COc1ccc(COCCOC(C)C)cc1.CC(C)NCC(O)COc1ccc(COCCOC(C)C)cc1.O=C(O)/C=C/C(=O)O (racemic)	101%
FC(F)(F)C(Cl)Br (centres unmarked)	98.2%

Single results of other studies
Compound	system	setting	endpoint	result
COc1ccc(-c2c(Nc3ccccn3)[nH]c3c(C4=CCCCC4)c(-c4ccccc4)nn3c2=O)cc1	patients with advanced malignancies	oral, dose not given, treatment-emergent adverse events	platelet count decreased incidence	10%
Cc1cc(C)nc(N=C(N)NCCc2cnc[nH]2)n1	human, microsomes or S9	2 µM, 0.5 h	remaining compound	> 99%
